Experimental data gathered from unrelated publications.
Parts stem from different laboratories: compare values within a part only. Changes are numbered by the printed parent chain.

Sample 1 — technique: RNA Bind-n-Seq; form: RNA; sample: in vitro; tested at: 365 nM; relative to: no-protein control; direction: higher = stronger binding
Target: RNA binding protein fox-1 homolog 2, RRM domain, GST-SBP tag (RBFOX2, Homo sapiens, UniProt O43251-10, residues 100-194)
Setting: natural RNA segment, single round, ends assumed
Constant ends, left off below: GGGAGUUCUACAGUCCGACGAUC … UGGAAUUCUCGGGUGCCAA
Target sequence (chain): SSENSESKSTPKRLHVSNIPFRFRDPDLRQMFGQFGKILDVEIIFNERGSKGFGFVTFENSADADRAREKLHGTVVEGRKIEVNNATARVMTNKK
Sequence	RBNS enrichment (R)
UGUGUGUUGGCGCGCUAAGUGCCACAUGCUUGUGUGUAGAGGAGGAGGUGGCCCUGCCGGCUCCGCGCUGCUGUGCCUGUGAUCCCUACCUGCUCCCCGCUCCUGUUGCC	0.242
UUUGUGUGAUCAUUCCGAGUGUUGCUGCAAGAUUACAGUGGACGUGAUCUUUUAGCAUGUGCUUUUAUAAAAAGUGGUAGCUCCAGAUGAUAUAGCAAUCUACCUUAUAU	0.655
ACUAGUCAGGUACCGUUUUAUCCCAGUCGUACUCUUCCAGGUUUGGAAGACCCAGAGAGGCCAAGAUCCCAUCCUUAGCCAUAGCGAGCGGUGGUGGUGGAUAGCAUCAC	0.294
CUUGAAAUUGAUCUCUAUACUCUAGCCCCUCAGCCAGCCUCCUUCCUGUUGUCUGAAACCUGGAGCUAAGCAGGUUGUCCUGUCACAAGCUCUGGGGACUGAGCUCCAUG	0.277
AGUUUUAAACCUGUUAAAUUAAUUUUGACAAAUAAGUUACCCUCAACUCAGAUCAAAAAUGGGCAGCCAAGUCUUCGGUAGGAAUUGGAGCCGGUGUAAUUCCUCCCUAA	0.407
UUUUAAUUCACCUCUUCUUUUCACCUCUUUAACCACUCCUCAGGAACAGAACACUUCUAGGACUGGGGGUCUUUUAGCUCCAUAAGCAAGUGAGCAGAUGGGACAAGUUA	0.241

Sample 2 — target: CCND3, cyclin fold, Cln2 fusion (human); technique: yeast growth competition, sequencing; sample: yeast; setting: weak parent motif; relative to: not given; direction: higher = stronger binding
Parent: PKN2 docking peptide (human); VSAVQKLDFSDTM
Change	normalised enrichment score
VSQVQKLDFSDTM [A3Q]	0.0864
VSAVQKLYFSDTM [D8Y]	0.126
VKAVQKLDFSDTM [S2K]	0.0768
VSAVQKLDFSDYM [T12Y]	0.18
VSAVQKLCFSDTM [D8C]	0.112
VSAVQKWDFSDTM [L7W]	0.112
VSAVQKLMFSDTM [D8M]	0.206
VSAVQKLDFSDTK [M13K]	-0.00513
VSAVQKLDFSVTM [D11V]	0.128
VSALQKLDFSDTM [V4L]	0.121
VSGVQKLDFSDTM [A3G]	0.0281

Sample 3 — technique: protein-binding microarray; form: double-stranded DNA, one strand shown; sample: in vitro; tested at: 250 nM; setting: 60-bp whole probe; added: salmon DNA 0.4 mg/ml; relative to: random background probes; direction: higher = stronger binding; constant ends, left off below: GCCTAGCAC … GTCTTGATTCGCTTGACGCTGCTG
Target: Interferon regulatory factor 7, full length, phosphomimetic (IRF7, Homo sapiens, UniProt Q92985, residues 1-503, S101K/S471D/S472D/S475D/S476D/S477D/S483D/S484D/S487D)
Residues (chain): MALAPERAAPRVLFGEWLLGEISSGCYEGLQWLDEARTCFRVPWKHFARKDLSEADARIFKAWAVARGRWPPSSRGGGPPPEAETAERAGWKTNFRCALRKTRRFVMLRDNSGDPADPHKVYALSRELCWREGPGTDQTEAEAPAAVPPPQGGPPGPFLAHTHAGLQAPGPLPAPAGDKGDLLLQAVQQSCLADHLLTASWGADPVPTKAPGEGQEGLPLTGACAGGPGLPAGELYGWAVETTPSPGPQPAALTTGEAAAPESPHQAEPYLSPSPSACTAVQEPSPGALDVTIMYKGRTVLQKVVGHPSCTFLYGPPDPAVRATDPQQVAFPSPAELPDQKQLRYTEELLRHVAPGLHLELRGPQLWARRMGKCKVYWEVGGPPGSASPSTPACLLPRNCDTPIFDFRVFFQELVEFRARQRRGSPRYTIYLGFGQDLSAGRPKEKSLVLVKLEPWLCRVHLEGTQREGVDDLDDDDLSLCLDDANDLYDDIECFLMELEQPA
Sequence	log fluorescence [z-score]
GACGGTCTCCTACTGATGACGTGCTAG	-0.178
TCACTTTCCCAGCCTGGGACTGTGCTA	3.22
GCCGATCTCAGTCTCGAGACGTGCTAG	0.503
TTGGAACTGGGGACTGGATTAGTGCTA	-0.549
GACGAACTCAGTTTCGAGACGTGCTAG	4.28
TCACCTTTCTCAACCTCACTGTGCTAG	1.29
TTTGGTTTCCTTTCCCTTTAGTGCTAG	6.09
GTGTGTTTGTGTGTGTATGTGTGCTAG	-0.0179
TTAGGTCTCGGTATCGGTTCGTGCTAG	4.75
TCAGGAAACTTAAACTAGACTGTGCTA	-0.253
GACGATCTCAGTTTCTAGACGTGCTAG	0.904
CTCGGTTTCCAAATTGTCTCGTGCTAG	3.66
GACGATAGCGGGTTTCGAGACGTGCTA	2
CTGCTCTGTGCACAGAAGACGTGCTAG	-0.0398
GACCGTTTCGACACTGGGGACGTGCTA	2.77

Sample 4 — technique: protein binding microarray; form: double-stranded DNA, one strand shown; sample: in vitro; tested at: not given; relative to: not given; direction: higher = stronger binding
Target: Histone acetyltransferase KAT6A, both winged helices, GST fusion (KAT6A, Homo sapiens, UniProt Q92794, residues 1-181)
Setting: 8-mer, flanks averaged, mean of 2 arrays, mostly near background
Residues (chain): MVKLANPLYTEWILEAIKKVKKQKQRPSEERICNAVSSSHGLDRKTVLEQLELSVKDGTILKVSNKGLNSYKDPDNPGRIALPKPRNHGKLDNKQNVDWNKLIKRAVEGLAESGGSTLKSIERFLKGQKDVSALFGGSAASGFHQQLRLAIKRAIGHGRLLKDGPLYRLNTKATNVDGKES
Sequence	E-score
GGCTCTGA	-0.277
GATACCAA	0.049
AAATAACG	0.034
TGCGCGAA	0.28
AGCATCTC	-0.209
AAGACAAC	-0.0722
CCCATGAA	-0.192
AGACTGGA	-0.169
GATTTTGC	-0.177
CCGGGGCA	0.107
TATAAAGA	-0.0106
CCAATGAG	-0.128
ACCCTTGG	-0.142
AACCAAGC	-0.128

Sample 5 — technique: DHFR PCA, dose-response; sample: yeast; setting: Hill fit, mean, not affinity; added: (+)-ABA, dose series; direction: lower = more sensitive
Target: ABI1, truncated, D143A, DHFR fusion (Arabidopsis thaliana, UniProt P49597)
Parent: PYL1, truncated, DHFR fusion (Arabidopsis thaliana, UniProt Q8VZS8); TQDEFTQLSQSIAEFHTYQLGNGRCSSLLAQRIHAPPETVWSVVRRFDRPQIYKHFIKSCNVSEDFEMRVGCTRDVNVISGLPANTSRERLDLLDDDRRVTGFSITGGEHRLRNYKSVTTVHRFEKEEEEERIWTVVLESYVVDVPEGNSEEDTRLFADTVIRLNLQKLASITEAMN
Change	ABA EC50 [nM]
D3I	4660
T160A	30600
R49S	2730
S63Q	1810
G107S	41500
T73L	2260
R132I	2810
V43E	390000
N22M	2130
V62S	65900
E128A	2210
N61A	1930
R46V	53400
E128F	3130

Sample 6 — technique: RNA Bind-n-Seq; form: RNA; sample: in vitro; tested at: 1 µM; setting: whole 134-nt RNA, ends assumed; added: 150 mM KCl; relative to: input library; direction: higher = stronger binding
Target: Ras GTPase-activating protein-binding protein 1, RRM domain (G3BP1, Homo sapiens, UniProt Q13283)
Sequence of UniProt Q13283 (whole entry, looked up): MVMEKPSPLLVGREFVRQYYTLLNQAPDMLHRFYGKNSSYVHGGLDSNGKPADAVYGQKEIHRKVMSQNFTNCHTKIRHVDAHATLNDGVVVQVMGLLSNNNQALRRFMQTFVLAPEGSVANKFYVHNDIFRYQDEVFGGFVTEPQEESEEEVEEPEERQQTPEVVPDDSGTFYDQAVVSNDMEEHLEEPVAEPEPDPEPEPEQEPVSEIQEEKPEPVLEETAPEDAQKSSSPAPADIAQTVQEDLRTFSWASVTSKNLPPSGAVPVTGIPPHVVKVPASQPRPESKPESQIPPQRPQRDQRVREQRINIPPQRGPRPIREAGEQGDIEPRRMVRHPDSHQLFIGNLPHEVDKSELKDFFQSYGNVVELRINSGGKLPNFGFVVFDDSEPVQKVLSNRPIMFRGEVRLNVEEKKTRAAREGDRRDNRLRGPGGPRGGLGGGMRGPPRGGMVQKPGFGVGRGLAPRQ
Constant ends, left off below: GGGAGUUCUACAGUCCGACGAUC … UGGAAUUCUCGGGUGUCAAGG
Sequence	log2 enrichment
UAACUUUAGAGGAGGAUCUGAUGGAUAUGGCAGUGGACGUGGAUUUGGGGAUGGCUAUAAUGGGUAUGGAGGAGGACCUGGAGGUGGCAA	-0.345
AGUCCUGUGCUACACAUCGUAUGUACCGAAUCGGGGUUUUUUUGGGGAGGGGAGGGGAAAGUAUUAUGUUACGCCGUUCGGAUCUGCACU	1.01
GCCACUGUUCACCAGUCCUACCCACACCAUGCCACACAGCUCCAUGCCCACCAGCCGCAGCCGGCUACCACGCCUACUGGAAGCCAGCCG	-0.606
UCAAGUCCUGUGCUACACAUCGUAUGUACCGAAUCGGAAAGGUUUUUUUGGAGGAAAGUAUUAUGUUACGCCGUUCGGAUCUGCACUUCC	-0.301
UCCUCAAGUCCUGUGCUACACAUCGUAUGUACCGAAUCGGGUGGGGUGGUGGAAAGUAUUAUGUUACGCCGUUCGGAUCUGCACUUCCAG	-0.127
AGUCCUGUGCUACACAUCGUAUGUACCGAAUCGGGGAGGGGUUUGGGGAAAAAGGGGAAAGUAUUAUGUUACGCCGUUCGGAUCUGCACU	1.21
CACAGACAACACGCACCCACACAGACACAGAGGGAAGGGGUUGGGAUGGGGACUGGGUGCACAGCAGGGCGGGGUAGGACCCCAGCCCCU	0.416

Sample 7 — technique: aptamer microarray, sandwich; form: DNA with 2'F-ANA; sample: in vitro; tested at: 200 nM; added: Cy3 exosite-II aptamer, 400 nM; direction: higher = stronger binding; sequence: GGTTGGTGTGGTTGG
Target: Prothrombin, mature alpha-thrombin (F2, Homo sapiens, UniProt P00734)
Setting: whole 15-mer aptamer, many near background
Modification	mean fluorescence intensity [a.u.]
2'F-ANA at 1 4 5 7 9 12 13 15	64.8
2'F-ANA at 1 3 6 8 10 11 13	76.9
2'F-ANA at 1 4 5 6 7 8 10	56.9
2'F-ANA at 1 2 4 6 7 8	162
2'F-ANA at 3 4 5 6 7 8 9 11 13	71.3
2'F-ANA at 6 7 8 14	206
2'F-ANA at 6 8 10 15	147
2'F-ANA at 1 2 5 6 7 8 15	64.8
2'F-ANA at 3 5 6 7 10 11 13 14	47.7
2'F-ANA at 1 3 4 7 9 11 12	320
2'F-ANA at 3 4 5 12 14	53.9
2'F-ANA at 2 3 7 10 11	458
2'F-ANA at 2 3 4 5 6 7 9 10 11 13 14 15	51.2
2'F-ANA at 2 3 5 15	110
2'F-ANA at 1 2 4 5 9 11 12	121
2'F-ANA at 2 3 5 9 10 14 15	48
2'F-ANA at 1 2 3 9 10 13 14 15	54.3
2'F-ANA at 1 2 3 4 5 6 9 10 11 12	55.7
2'F-ANA at 3 4 6 7 9 10 11 13 14	167
2'F-ANA at 1 4 5 6 9 11 13 15	55
